Measurements gathered from unrelated publications.
Values joined by “and” are separate records of one study, mostly repeats; a detail may differ. Numbers after ± are the reported error.
NF-kappa-B inhibitor alpha: NF-kappa-B inhibitor alpha (Homo sapiens, UniProt P25963)
UniProt P25963, sequence (whole entry, looked up): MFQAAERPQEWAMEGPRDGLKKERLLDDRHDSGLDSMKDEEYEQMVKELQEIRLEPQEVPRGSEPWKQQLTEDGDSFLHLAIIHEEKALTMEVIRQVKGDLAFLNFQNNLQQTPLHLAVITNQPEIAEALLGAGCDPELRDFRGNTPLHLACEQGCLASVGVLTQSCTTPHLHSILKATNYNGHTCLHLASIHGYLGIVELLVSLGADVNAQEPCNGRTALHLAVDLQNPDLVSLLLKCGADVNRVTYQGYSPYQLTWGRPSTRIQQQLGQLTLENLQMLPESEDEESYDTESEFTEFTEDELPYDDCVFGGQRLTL
AHR: Aryl hydrocarbon receptor (AHR, Homo sapiens, UniProt P35869)
UniProt P35869, sequence (whole entry, looked up): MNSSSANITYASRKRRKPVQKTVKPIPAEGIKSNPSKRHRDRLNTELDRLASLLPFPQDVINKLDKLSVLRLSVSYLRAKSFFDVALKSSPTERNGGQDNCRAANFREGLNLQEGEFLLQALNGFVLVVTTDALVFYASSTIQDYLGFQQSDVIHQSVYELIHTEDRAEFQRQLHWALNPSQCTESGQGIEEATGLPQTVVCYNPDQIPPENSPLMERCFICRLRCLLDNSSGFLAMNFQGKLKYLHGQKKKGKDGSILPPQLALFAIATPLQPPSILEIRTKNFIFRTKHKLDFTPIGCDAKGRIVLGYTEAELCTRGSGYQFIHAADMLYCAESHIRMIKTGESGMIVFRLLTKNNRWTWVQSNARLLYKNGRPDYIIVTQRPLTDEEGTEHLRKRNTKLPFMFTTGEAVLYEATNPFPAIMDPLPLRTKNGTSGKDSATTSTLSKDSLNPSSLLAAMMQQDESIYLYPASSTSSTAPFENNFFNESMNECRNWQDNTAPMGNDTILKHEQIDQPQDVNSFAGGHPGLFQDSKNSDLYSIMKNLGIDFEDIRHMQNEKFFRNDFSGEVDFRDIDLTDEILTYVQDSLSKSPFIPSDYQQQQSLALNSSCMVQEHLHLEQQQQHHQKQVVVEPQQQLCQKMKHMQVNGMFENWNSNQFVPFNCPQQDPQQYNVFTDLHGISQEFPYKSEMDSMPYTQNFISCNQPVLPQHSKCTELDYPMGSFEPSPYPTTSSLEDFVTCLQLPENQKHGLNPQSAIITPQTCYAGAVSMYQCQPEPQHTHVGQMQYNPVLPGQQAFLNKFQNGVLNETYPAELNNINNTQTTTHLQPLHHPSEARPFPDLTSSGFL
Aryl hydrocarbon receptor: Aryl hydrocarbon receptor (Danio rerio, UniProt Q9YGV3)
ABL1 Q252H: Tyrosine-protein kinase ABL1 (ABL1, Homo sapiens, UniProt P00519, Q252H)
UniProt P00519, sequence (whole entry, unmodified, looked up): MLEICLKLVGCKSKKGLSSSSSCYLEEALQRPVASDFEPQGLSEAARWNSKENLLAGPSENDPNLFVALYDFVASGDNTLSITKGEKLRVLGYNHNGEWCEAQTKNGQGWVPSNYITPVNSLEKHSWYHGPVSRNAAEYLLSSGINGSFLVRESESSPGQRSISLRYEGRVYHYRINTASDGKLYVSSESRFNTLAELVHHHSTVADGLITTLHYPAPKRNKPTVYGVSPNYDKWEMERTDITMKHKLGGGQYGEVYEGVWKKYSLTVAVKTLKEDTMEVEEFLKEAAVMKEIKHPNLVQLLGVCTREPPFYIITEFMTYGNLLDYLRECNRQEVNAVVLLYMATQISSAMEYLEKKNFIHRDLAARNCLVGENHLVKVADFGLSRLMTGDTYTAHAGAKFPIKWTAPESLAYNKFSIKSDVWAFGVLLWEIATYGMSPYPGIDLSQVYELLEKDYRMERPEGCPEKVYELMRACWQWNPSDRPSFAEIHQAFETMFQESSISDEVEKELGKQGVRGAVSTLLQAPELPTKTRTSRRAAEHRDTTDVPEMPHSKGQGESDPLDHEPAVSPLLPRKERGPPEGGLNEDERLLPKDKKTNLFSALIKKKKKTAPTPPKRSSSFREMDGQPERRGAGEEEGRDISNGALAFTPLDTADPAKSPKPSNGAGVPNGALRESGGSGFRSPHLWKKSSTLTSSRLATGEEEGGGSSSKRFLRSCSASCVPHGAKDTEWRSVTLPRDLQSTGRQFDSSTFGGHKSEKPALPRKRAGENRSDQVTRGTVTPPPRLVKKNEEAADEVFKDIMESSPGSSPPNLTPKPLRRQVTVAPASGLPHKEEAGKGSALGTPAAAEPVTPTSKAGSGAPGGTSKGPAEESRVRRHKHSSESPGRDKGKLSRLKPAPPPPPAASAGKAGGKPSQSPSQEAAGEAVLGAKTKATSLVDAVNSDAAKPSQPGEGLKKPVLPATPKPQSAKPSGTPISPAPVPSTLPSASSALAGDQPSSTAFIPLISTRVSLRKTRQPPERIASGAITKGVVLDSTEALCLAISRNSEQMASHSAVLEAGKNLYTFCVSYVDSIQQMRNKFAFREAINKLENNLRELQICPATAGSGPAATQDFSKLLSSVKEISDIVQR
T1: FMN riboswitch RNA, two annealed strands (Fusobacterium nucleatum); chain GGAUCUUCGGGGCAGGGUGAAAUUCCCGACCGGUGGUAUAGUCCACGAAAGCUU; chain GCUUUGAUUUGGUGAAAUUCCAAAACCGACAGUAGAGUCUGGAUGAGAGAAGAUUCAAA
UniProt Q16774, sequence (whole entry, looked up): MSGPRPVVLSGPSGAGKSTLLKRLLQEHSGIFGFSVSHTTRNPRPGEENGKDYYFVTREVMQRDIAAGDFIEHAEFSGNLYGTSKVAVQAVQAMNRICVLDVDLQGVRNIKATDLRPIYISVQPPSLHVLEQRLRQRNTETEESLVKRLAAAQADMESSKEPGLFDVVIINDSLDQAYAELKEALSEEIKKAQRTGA
UniProt O15305, sequence (whole entry, looked up): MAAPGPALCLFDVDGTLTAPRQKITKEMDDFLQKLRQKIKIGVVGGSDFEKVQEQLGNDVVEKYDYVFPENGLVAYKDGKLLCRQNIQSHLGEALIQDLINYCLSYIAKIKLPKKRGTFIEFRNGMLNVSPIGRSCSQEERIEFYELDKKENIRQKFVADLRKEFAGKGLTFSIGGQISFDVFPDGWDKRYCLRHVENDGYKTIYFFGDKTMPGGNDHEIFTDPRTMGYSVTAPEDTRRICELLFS
UniProt Q13133, sequence (whole entry, looked up): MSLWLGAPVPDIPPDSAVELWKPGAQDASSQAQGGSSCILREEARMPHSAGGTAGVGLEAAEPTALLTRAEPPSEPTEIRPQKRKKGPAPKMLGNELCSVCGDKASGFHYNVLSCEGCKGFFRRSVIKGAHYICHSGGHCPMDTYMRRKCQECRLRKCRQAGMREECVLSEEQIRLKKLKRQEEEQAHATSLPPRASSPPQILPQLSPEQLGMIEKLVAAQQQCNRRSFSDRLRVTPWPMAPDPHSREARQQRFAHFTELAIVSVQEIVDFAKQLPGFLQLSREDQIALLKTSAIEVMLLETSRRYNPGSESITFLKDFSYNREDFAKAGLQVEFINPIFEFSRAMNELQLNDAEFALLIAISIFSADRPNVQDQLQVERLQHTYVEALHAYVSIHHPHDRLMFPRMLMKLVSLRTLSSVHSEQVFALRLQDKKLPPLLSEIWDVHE
UniProt P11388, sequence (whole entry, looked up): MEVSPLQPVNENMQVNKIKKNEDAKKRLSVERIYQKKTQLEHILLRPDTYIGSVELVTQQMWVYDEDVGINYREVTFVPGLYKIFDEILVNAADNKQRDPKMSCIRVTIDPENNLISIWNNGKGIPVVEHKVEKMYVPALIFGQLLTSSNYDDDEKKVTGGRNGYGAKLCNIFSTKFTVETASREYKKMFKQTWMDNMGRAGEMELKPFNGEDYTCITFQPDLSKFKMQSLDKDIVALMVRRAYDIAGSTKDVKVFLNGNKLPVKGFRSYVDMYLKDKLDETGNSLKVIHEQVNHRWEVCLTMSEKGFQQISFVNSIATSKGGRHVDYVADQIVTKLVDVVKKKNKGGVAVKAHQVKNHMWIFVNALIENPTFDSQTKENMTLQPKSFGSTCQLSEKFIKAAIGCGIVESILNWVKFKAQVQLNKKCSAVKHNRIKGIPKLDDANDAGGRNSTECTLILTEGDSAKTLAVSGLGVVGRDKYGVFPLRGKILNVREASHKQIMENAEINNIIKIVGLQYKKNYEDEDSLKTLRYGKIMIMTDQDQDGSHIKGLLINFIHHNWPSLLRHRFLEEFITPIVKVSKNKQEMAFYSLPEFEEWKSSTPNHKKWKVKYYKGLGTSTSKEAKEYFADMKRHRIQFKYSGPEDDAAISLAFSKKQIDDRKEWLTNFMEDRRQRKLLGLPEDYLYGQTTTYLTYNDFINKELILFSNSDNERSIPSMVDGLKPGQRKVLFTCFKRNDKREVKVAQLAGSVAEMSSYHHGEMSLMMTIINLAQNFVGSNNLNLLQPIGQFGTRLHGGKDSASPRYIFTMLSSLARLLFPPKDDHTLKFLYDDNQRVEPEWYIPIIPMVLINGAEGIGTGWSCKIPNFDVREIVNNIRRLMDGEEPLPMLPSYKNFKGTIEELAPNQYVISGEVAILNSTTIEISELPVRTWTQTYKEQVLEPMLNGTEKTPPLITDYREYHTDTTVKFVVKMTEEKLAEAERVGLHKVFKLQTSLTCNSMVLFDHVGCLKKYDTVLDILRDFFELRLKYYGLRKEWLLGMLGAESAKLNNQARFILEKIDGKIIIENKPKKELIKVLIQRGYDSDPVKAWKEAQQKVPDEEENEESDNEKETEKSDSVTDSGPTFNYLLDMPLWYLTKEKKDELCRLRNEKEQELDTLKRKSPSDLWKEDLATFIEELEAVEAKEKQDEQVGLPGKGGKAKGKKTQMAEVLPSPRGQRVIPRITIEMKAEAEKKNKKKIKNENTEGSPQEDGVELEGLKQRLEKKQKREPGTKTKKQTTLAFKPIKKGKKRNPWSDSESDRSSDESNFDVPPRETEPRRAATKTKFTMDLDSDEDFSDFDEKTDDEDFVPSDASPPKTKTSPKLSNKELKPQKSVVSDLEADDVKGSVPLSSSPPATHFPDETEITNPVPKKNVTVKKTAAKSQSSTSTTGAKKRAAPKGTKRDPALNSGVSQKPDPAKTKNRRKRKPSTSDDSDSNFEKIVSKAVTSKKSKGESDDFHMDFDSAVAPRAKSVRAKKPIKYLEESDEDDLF
UniProt Q01105, sequence (whole entry, unmodified, looked up): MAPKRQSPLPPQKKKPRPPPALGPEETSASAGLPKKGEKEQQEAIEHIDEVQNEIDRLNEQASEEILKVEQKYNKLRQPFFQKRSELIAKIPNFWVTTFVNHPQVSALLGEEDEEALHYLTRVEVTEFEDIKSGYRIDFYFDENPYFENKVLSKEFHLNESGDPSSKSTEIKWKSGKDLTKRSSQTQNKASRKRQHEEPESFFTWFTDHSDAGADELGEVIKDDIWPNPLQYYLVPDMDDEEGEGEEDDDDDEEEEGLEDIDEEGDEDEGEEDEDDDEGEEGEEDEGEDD

`CCC1(O)CCCN(C(=O)c2ccc(-c3ccc(F)c(NC(=O)CCl)c3)cc2)C1` (stereo not shown) has a protein adduct of 72% (DNA dC->dU-editing enzyme APOBEC-3B, C-terminal domain (Homo sapiens, UniProt Q9UH17); covalent modifier, intact protein mass spectrometry, item: adduct +25721 Da; 125 µM, 3 h, 5-fold molar excess).
`O=C(O)C1=CCNCC1` has an agonist score of 0.91 (GABA-A receptor; alpha-1/beta-2/gamma-2 (Rattus norvegicus, UniProt P18508+P62813+P63138); membrane potential, agonist, QP-DHM fluorescence; HEK293 expressing GABAA; 10 µM; relative to: 10 µM GABA, direction not given).
`CC[C@H](C)[C@H](NC(=O)[C@H](CCCNC(=N)N)NC(=O)[C@H](Cc1c[nH]cn1)NC(=O)[C@H](CCCNC(=N)N)NC(=O)[C@H](CC(=O)O)NC(=O)[C@H](CC(=O)O)NC(=O)[C@@H](NC(=O)[C@H](CC(=O)O)NC(=O)[C@@H]1CCCN1C(=O)[C@@H](N)CC(C)C)[C@@H](C)O)C(=O)N[C@@H](CCC(=O)O)C(=O)N[C@@H](CCC(=O)O)C(=O)N[C@@H](CCCCN)C(=O)N[C@@H](CCCNC(=N)N)C(=O)N[C@@H](CCCCN)C(=O)N[C@@H](CCCNC(=N)N)C(=O)N[C@H](C(=O)N[C@@H](Cc1ccc(O)cc1)C(=O)N[C@@H](CCC(=O)O)C(=O)N[C@H](C(=O)N[C@@H](Cc1ccccc1)C(=O)N[C@@H](CCCCN)C(=O)N[C@@H](CO)C(=O)N[C@H](C(=O)N[C@@H](CCSC)C(=O)N[C@@H](CCCCN)C(=O)N[C@@H](CCCCN)C(=O)N[C@@H](CO)C(=O)N1CCC[C@H]1C(=O)N[C@@H](Cc1ccccc1)C(=O)N[C@@H](CC(N)=O)C(=O)NCC(=O)N1CCC[C@H]1C(=O)O)[C@@H](C)CC)[C@@H](C)O)[C@@H](C)O` has a -TΔS of -4.4 ± 0.1 kcal/mol (NF-kappa-B inhibitor alpha; binding, ITC; pH 7.5, 293 K, 50 mM NaCl).
With `CN(C)C(=O)c1cccc(C(=O)c2c[nH]c3ccccc23)n1` the Emax was 37 ± 1% (AHR; reporter gene, agonist, XRE luciferase; HepG2; relative to: ITE).
The activation of `CCC(=O)NS(=O)(=O)c1ccc(-c2c(-c3ccccc3)noc2C)cc1` is reported as 0.95 fold (NR1H3 (Homo sapiens, UniProt Q13133); reporter gene, Gal4 hybrid reporter; 50 µM; relative to: vehicle).
`O=C1C=CC(=O)c2c1ccc1ccccc21` gave a fold change of 18.3 (Aryl hydrocarbon receptor; reporter gene, agonist, luciferase reporter; ZF-4; 370.37 µM; relative to: vehicle control).
`O=c1nc(SCc2cc(F)cc(C(F)(F)F)c2)nc(SCc2ccc3sccc3c2)[nH]1`: “ATP hydrolysis rate” 2.3 µM/min (TOP2A (Homo sapiens, UniProt P11388); ATPase activity; 1.95 µM, with: ATP 2 mM).
With `O=C(O)c1ccc(Nc2ncc3c(n2)-c2ccc(Cl)cc2C(c2c(F)cccc2F)=NC3)cc1` the remaining activity was 92% (ROCK-II(r); kinase activity; 1 µM).
`NC/C(=C\F)COc1cccc(Cn2c(=S)[nH]c(=O)c3[nH]cnc32)c1` has an H2O2 concentration of -0.762 µM (Myeloperoxidase (MPO, Homo sapiens, UniProt P05164); H2O2 consumption, inhibitor, H2O2 electrode; 10 µM, 0.1 s).
For `C[C@@H]1CCN(c2nccc(-c3cnn4ncccc34)n2)C1`, the remaining binding was 98% (ABL1 Q252H; KINOMEscan; 1 µM).
`C=CC(=O)N1CCC(COCC(=O)N2CCN(c3nc(-c4cnc(N)nc4C(F)F)nc(N4CCOC[C@@H]4C)n3)CC2)CC1` gave a remaining binding of 90% (CDK16 (Homo sapiens, UniProt Q00536); KINOMEscan; 1 µM).
`O=C(COP(=O)(O)O)[C@@H](O)[C@H](O)[C@H](O)COP(=O)(O)O` gave an enzyme activity of 97.7 and 97.6 and 95.7 (PMM2 (Homo sapiens, UniProt O15305); 0.001 mM, unit not given; relative to: activity at 0 mM set to 100).
For `CCOC(=O)C(C)c1n[nH]c2nc(N)[nH]c(=O)c2c1=O` (stereo not shown), “target engagement efficiency” read 13.4% (folP (Bacteria, UniProt P0AC13); CETSA HiBiT; Escherichia coli, whole cells; concentration not given; relative to: whole cell over lysate ΔTm).
The reaction velocity of `[Cl-].[Na+]` is reported as 0.0129 µM/s and 0.0137 µM/s and -0.00441 µM/s (GUK1 (Homo sapiens, UniProt Q16774); enzyme activity, NADH-coupled; 1.875 mM).
For `O=C1CCC(N2C(=O)c3ccccc3C2=O)C(=O)N1` (stereo not shown), the Dmax was 68 ± 6% (Sal-like protein 4 (SALL4, Homo sapiens, UniProt Q9UJQ4); degrader; C33A).
`CC[C@H](C)[C@@H]1NC(=O)[C@H](C)NC(=O)[C@H]([C@@H](C)CC)NC(=O)[C@H](CCC(N)=O)NC(=O)[C@H](C)NC(=O)[C@H](CCCNC(=N)N)NC(=O)[C@H](C(C)C)NC(=O)[C@H](CC(C)C)NC(=O)[C@H](CCC(=O)O)NC(=O)[C@H](CCCNC(=N)N)NC(=O)CNC(=O)[C@@H](NC(=O)[C@H](CC(C)C)NC(=O)[C@H](CCCCN)NC(=O)[C@@H](NC(=O)[C@@H](NC(=O)[C@H](CCC(=O)O)NC(=O)[C@H](CCC(=O)O)NC(=O)[C@H](CCSC)NC(=O)[C@H](Cc2c[nH]c3ccccc23)NC(=O)[C@H](CO)NC(=O)[C@@H](N)CC(=O)O)C(C)C)[C@@H](C)CC)CSSC[C@@H]2NC(=O)[C@@H](NC(=O)[C@H](CCCCN)NC(=O)[C@H](CC(N)=O)NC(=O)[C@H](C)NC(=O)[C@H](CC(C)C)NC(=O)[C@H](C)NC(=O)[C@H](CO)NC(=O)[C@H](Cc3ccc(O)cc3)NC(=O)[C@H](CC(C)C)NC(=O)[C@H](CCC(N)=O)NC(=O)c3ccc(-c4c5ccc(=[N+](C)C)cc-5oc5cc(N(C)C)ccc45)c(C(=O)[O-])c3)CSSC[C@H](NC(=O)CNC(=O)[C@H](C(C)C)NC(=O)[C@H](Cc3c[nH]cn3)NC2=O)C(=O)N[C@@H]([C@@H](C)O)C(=O)N[C@@H](CCCCN)C(=O)N[C@@H](CCCNC(=N)N)C(=O)N[C@@H](CO)C(=O)N[C@@H](CC(C)C)C(=O)N[C@@H](C)C(=O)N[C@@H](CCCNC(=N)N)C(=O)N[C@@H](Cc2ccccc2)C(=O)N[C@H](C(=O)O)CSSC[C@@H](C(=O)NCC(=O)N[C@@H](CCSC)C(=O)N[C@@H](CO)C(=O)N[C@H](C(=O)N[C@@H](Cc2c[nH]c3ccccc23)C(=O)N[C@@H](CO)C(=O)O)[C@@H](C)O)NC1=O` — result for “koff slow phase”: 0.000764 s⁻¹ (Relaxin receptor 1 (RXFP1, Homo sapiens, UniProt Q9HBX9, F76A/Y80A); NanoBRET dissociation; infinite dilution, with: 100 nM relaxin).
For `Cn1c2c(c3ccc(Cl)c(Cl)c31)C(C#N)C(C)(C)NC2=O` (stereo not shown), the delta Tm was -0.2 °C (Serine/threonine-protein kinase VRK3 (VRK3, Homo sapiens, UniProt Q8IV63); thermal stability, thermal shift; 10 µM; higher = stronger binding).
`CCCCCCCCCCCCC/C=C/[C@@H](O)[C@H](CO)NC(=O)CCCCCCCCCCCCCCCCCCC`: “bound endogenous lipid” 4.5 (Protein SET (SET, Homo sapiens, UniProt Q01105); lipid binding, GFP pull-down LC-MS/MS; A549 overexpressing GFP-tagged protein; ER-targeted construct, unit not given; relative to: vector-transfected cells).
`Cc1cccc2c1ccc1ccccc12` has a maximum response of 120 LacZ units (AHR; reporter gene, agonist, yeast LacZ reporter; Saccharomyces cerevisiae).
`Cc1cc2nc3c(=O)[nH]c(=O)nc-3n(C[C@H](O)[C@H](O)[C@H](O)COP(=O)(O)O)c2cc1C`: binding “binds” (T1, FMN riboswitch RNA, two annealed strands (Fusobacterium nucleatum); competitor, MALDI-TOF-MS; with: FMN 50 µM).
For `CCCCc1nc2c(N)nc3ccccc3n2n1`, EC50 read “inactive” (TLR8 (Homo sapiens, UniProt Q9NR97); reporter gene, agonist, NF-κB reporter; HEK-Blue TLR8).
Under “Gs protein activation”, `CCCCC[C@H](O)/C=C/[C@H]1C(=O)C[C@H](O)[C@@H]1C/C=C\CCCC(=O)O` is recorded as 60.3% (PTGDR (Homo sapiens, UniProt Q13258, M112A); agonist, ONE-GO BRET; 0.01953 µM (19.5 nM); relative to: wild-type receptor maximum).
With `O=C(CNc1cccc2c1C(=O)N(C1CCC(=O)NC1=O)C2=O)NCCCCCCN1CCc2c(c3ccccc3n2Cc2ccc(C(=O)NO)cc2)C1` (stereo not shown) the degradation was 95% (HDAC6 (Homo sapiens, UniProt Q9UBN7); degrader, western blot; MM1.S; 1 µM, 24 h).
The Dmax of `Nc1nnc(-c2ccccc2O)cc1N1CCN(Cc2ccc(OCCOCCNc3cccc4c3C(=O)N(C3CCC(=O)NC3=O)C4=O)c(F)c2)CC1` (stereo not shown) is reported as 90% (SMARCA2 (Homo sapiens, UniProt P51531); degrader, immunoblot; SMARCA4 wild-type cells; 96 h, median of twelve cell lines).
With `CC[C@H](C)[C@H](NC(=O)[C@H](CO)NC(=O)[C@H](CCCCN)NC(=O)[C@H](Cc1ccccc1)NC(=O)[C@@H](NC(=O)[C@H](CCC(=O)O)NC(=O)[C@H](Cc1ccc(O)cc1)NC(=O)[C@@H](NC(=O)[C@H](CCCNC(=N)N)NC(=O)[C@H](CCCCN)NC(=O)[C@H](CCCNC(=N)N)NC(=O)[C@H](CCCCN)NC(=O)[C@H](CCC(=O)O)NC(=O)[C@H](CCC(=O)O)NC(=O)[C@@H](NC(=O)[C@H](CCCNC(=N)N)NC(=O)[C@H](Cc1c[nH]cn1)NC(=O)[C@H](CCCNC(=N)N)NC(=O)[C@H](CC(=O)O)NC(=O)[C@H](CC(=O)O)NC(=O)[C@@H](NC(=O)[C@H](CC(=O)O)NC(=O)[C@@H]1CCCN1C(=O)[C@@H](N)CC(C)C)[C@@H](C)O)[C@@H](C)CC)[C@@H](C)O)[C@@H](C)O)C(=O)N[C@@H](C)C(=O)N[C@@H](CCCCN)C(=O)N[C@@H](CCCCN)C(=O)N[C@@H](CO)C(=O)N1CCC[C@H]1C(=O)N[C@@H](Cc1ccccc1)C(=O)N[C@@H](CC(N)=O)C(=O)NCC(=O)N1CCC[C@H]1C(=O)O` the ΔH was -3 ± 0.02 kcal/mol (NF-kappa-B inhibitor alpha; binding, ITC; pH 7.5, 293 K, 50 mM NaCl).
`CCCCCCCCCCCCC/C=C/[C@@H](O)[C@H](CO)NC(=O)CCCCCCCCCCCCC` — result for “lipid fraction bound”: 14.5% (Protein SET (SET, Homo sapiens, UniProt Q01105, K222D); lipid binding, GFP pull-down LC-MS/MS; A549 overexpressing GFP-tagged protein; relative to: eluate plus flow-through).
For `CC[C@@H]1[C@H](F)C(=O)N[C@@H]1COc1nccc2cc(C(N)=O)c(OC)cc12`, the inhibition was -7.3% (TLK1 (Homo sapiens, UniProt Q9UKI8); ATP-site probe binding, ActivX profiling; THP-1 cell lysate; 0.04 mM, Lys2 site).
`O=C(O)[C@@H]1CCCN1c1ncnc2[nH]cnc12` (racemic): “log fold enrichment” -0.0605 (DDB1- and CUL4-associated factor 7 (Homo sapiens, UniProt P61962); binding, affinity selection mass spectrometry; relative to: other proteins in batch).
`COc1cccc(C(=O)C#Cc2ccc(O)c(OC)c2)c1` has a binding of 64% (rhlR (Pseudomonas aeruginosa, UniProt P54292); receptor binding; concentration not given, 1.5 h, with: BHL at 1:1 ratio; relative to: control).
`NCCCS(=O)(=O)O` has a fraction bound of 0.000296 (SLC6A6 (Homo sapiens, UniProt P31641, Y138A); binding, microscale thermophoresis; 32.7 nM, fitted curve; higher = more binding).
The remaining activity of `C=CC(=O)N1CCC[C@@H](n2nc(-c3ccc(Oc4ccccc4)cc3)c3c(N)ncnc32)C1` is reported as 122% (EPHB3 (Homo sapiens, UniProt P54753); 0.1 µM).
For `c1ccc2c(c1)-c1cccc3c1c-2cc1ccccc13`, the fold change was 1.85 (Aryl hydrocarbon receptor; reporter gene, agonist, luciferase reporter; ZF-4; 1.524 µM; relative to: vehicle control).
For `C[C@@H](c1ccc(-n2cnc3c(N)ncnc32)cc1)N1CCc2nn(C)c(Cc3ccccc3)c2C1=O`, the remaining binding was 78% (NUAK2 (Homo sapiens, UniProt Q9H093); KINOMEscan; 0.1 µM; relative to: DMSO control).
With `N[C@H]1CCN(c2nccc(-c3cnn4ncccc34)n2)C1` the remaining binding was 74% (ABL1 Q252H; KINOMEscan; 1 µM; relative to: control).
